Assay results collected from several papers.
Each line is one published result; not all experiments were run side by side.

SMILES | cell line | test | conditions | how to read | selectivity ratio
C#CCN[C@@H]1C=C[C@]2(O[C@H]([C@@H](CC)C(=O)[C@@H](C)[C@@H](O)[C@H](C)[C@@H]3O[C@@H]([C@@H](CC)C(=O)O)CC[C@@H]3C)[C@@H](C)C[C@H]2C)O[C@@]12CC[C@@](C)([C@H]1CC[C@](O)(CC)[C@H](C)O1)O2 | HMLER | cell proliferation | – | baseline: IC50 CD24high/CD44low over IC50 CD24low/CD44high | 13.5
CC[C@@H](C(=O)[C@@H](C)[C@@H](O)[C@H](C)[C@@H]1O[C@@H]([C@@H](CC)C(=O)O)CC[C@@H]1C)[C@H]1O[C@]2(C=C[C@H](NCc3ccc(C)cc3)[C@]3(CC[C@@](C)([C@H]4CC[C@](O)(CC)[C@H](C)O4)O3)O2)[C@H](C)C[C@@H]1C | HMLER CD24low/CD44high | cell viability, CellTiter-Blue | 72 h | baseline: IC50 HMLER CD24high/CD44low over CD24low/CD44high | 12.7
C[C@H](N)[C@@H](CCCCCCCCCCCCCCC(=O)CCCCCCC[C@@H](O)[C@@H](C)N)O[C@@H]1O[C@H](CO)[C@H](O)[C@H](O)[C@H]1O | HCC70 | – | – | baseline: IC50 MCF-12A over IC50 HCC70 | 7.8
CNC(=O)c1cc(Oc2ccc(NC(=O)c3cc(-c4ccccc4OC(=O)CCC(=O)OC4OC5OC6(C)CCC7C(C)CCC(C4C)C57OO6)ccn3)cc2)ccn1 (stereo not drawn) | HepG2 and LO2 | cell viability, MTT | 72 h | baseline: IC50 LO2 over IC50 HepG2 | 5.9
Cc1ccc(C(C)C)cc1.[Au][S]C1=NCCS1.[Cl][Ru][Cl].c1ccc(P(CP(c2ccccc2)c2ccccc2)c2ccccc2)cc1 | L929 and HCT-116 | trypan blue exclusion | – | baseline: IC50 L929 over IC50 HCT-116 | 7.5
CC[C@H]1OC(=O)[C@H](C(C)C)NC(=O)[C@H](C)OC(=O)[C@@H](C(C)C)NC(=O)[C@@H](C(C)C)OC(=O)[C@H](C(C)C)NC(=O)[C@H](C)OC(=O)[C@@H](C(C)C)NC(=O)[C@@H](C(C)C)OC(=O)[C@H](C(C)C)NC(=O)[C@H](C)OC(=O)[C@@H](C(C)C)NC1=O | C6 | cell growth, SRB | – | baseline: IC50 in HA over IC50 in C6 | 30
CCCCCN(CCCCC)[C@H]1C=C[C@]2(O[C@H]([C@@H](CC)C(=O)[C@@H](C)[C@@H](O)[C@H](C)[C@@H]3O[C@@H]([C@@H](CC)C(=O)O)CC[C@@H]3C)[C@@H](C)C[C@H]2C)O[C@@]12CC[C@@](C)([C@H]1CC[C@](O)(CC)[C@H](C)O1)O2 | HMLER CD24low/CD44high | cell viability, CellTiter-Blue | 72 h | baseline: IC50 HMLER CD24high/CD44low over CD24low/CD44high | 7.7
CNC(=O)c1cc(Oc2ccc(NC(=O)c3cc(-c4ccc(COC(=O)CCC(=O)OC5OC6OC7(C)CCC8C(C)CCC(C5C)C68OO7)cc4)ccn3)cc2)ccn1 (stereo not drawn) | HepG2 and LO2 | cell viability, MTT | 72 h | baseline: IC50 LO2 over IC50 HepG2 | 2.5
CCN[C@H]1C=C[C@]2(O[C@H]([C@@H](CC)C(=O)[C@@H](C)[C@@H](O)[C@H](C)[C@@H]3O[C@@H]([C@@H](CC)C(=O)O)CC[C@@H]3C)[C@@H](C)C[C@H]2C)O[C@@]12CC[C@@](C)([C@H]1CC[C@](O)(CC)[C@H](C)O1)O2 | HMLER CD24low/CD44high | cell viability, CellTiter-Blue | 72 h | baseline: IC50 HMLER CD24high/CD44low over CD24low/CD44high | 6.1
C[C@@H](N)[C@H](O)CCCCCCCC(=O)CCCCCCCCCCCCCC[C@@H](O[C@@H]1O[C@H](CO)[C@@H](O)[C@H](O)[C@H]1O)[C@@H](N)CO | HCC70 | – | – | baseline: IC50 MCF-12A over IC50 HCC70 | 2.3
CCCCN[C@H]1C=C[C@]2(O[C@H]([C@@H](CC)C(=O)[C@@H](C)[C@@H](O)[C@H](C)[C@@H]3O[C@@H]([C@@H](CC)C(=O)O)CC[C@@H]3C)[C@@H](C)C[C@H]2C)O[C@@]12CC[C@@](C)([C@H]1CC[C@](O)(CC)[C@H](C)O1)O2 | HMLER CD24low/CD44high | cell viability, CellTiter-Blue | 72 h | baseline: IC50 HMLER CD24high/CD44low over CD24low/CD44high | 15.2
CNC(=O)c1cc(Oc2ccc(NC(=O)c3cc(-c4ccc(OC(=O)CCC(=O)OC5OC6OC7(C)CCC8C(C)CCC(C5C)C68OO7)cc4)ccn3)cc2)ccn1 (stereo not drawn) | HepG2 and LO2 | cell viability, MTT | 72 h | baseline: IC50 LO2 over IC50 HepG2 | 2.5
